Assay results of several laboratories.
Lines come from different studies, so protocols differ. Numbers after ± are the reported error.
Sequence of UniProt P54756 (whole entry, looked up): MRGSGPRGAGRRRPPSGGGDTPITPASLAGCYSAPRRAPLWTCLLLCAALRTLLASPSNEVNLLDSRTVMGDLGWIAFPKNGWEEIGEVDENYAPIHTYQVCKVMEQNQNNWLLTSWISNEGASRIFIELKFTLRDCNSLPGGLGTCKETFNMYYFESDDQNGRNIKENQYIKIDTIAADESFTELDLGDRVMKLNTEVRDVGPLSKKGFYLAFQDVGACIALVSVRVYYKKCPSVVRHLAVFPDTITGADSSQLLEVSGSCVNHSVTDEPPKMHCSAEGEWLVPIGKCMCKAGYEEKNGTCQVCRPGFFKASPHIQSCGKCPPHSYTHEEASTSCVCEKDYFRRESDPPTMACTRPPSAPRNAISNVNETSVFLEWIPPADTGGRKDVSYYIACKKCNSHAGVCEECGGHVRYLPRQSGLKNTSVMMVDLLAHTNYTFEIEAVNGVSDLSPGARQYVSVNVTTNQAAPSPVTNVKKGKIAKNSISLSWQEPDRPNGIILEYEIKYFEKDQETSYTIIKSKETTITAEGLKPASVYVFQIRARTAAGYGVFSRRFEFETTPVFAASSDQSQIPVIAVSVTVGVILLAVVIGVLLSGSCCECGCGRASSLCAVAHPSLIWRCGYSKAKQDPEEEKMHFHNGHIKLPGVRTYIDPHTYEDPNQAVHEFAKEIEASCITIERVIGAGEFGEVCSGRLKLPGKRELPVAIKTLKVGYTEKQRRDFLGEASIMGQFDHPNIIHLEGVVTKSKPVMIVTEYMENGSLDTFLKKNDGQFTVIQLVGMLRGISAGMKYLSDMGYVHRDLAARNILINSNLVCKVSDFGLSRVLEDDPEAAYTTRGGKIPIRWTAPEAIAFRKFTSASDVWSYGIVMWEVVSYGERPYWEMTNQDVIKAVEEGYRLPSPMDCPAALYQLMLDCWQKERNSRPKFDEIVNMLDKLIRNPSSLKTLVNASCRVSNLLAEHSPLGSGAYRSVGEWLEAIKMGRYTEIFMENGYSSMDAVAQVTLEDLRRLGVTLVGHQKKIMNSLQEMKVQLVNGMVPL
Sequence of UniProt Q28181 (whole entry, looked up): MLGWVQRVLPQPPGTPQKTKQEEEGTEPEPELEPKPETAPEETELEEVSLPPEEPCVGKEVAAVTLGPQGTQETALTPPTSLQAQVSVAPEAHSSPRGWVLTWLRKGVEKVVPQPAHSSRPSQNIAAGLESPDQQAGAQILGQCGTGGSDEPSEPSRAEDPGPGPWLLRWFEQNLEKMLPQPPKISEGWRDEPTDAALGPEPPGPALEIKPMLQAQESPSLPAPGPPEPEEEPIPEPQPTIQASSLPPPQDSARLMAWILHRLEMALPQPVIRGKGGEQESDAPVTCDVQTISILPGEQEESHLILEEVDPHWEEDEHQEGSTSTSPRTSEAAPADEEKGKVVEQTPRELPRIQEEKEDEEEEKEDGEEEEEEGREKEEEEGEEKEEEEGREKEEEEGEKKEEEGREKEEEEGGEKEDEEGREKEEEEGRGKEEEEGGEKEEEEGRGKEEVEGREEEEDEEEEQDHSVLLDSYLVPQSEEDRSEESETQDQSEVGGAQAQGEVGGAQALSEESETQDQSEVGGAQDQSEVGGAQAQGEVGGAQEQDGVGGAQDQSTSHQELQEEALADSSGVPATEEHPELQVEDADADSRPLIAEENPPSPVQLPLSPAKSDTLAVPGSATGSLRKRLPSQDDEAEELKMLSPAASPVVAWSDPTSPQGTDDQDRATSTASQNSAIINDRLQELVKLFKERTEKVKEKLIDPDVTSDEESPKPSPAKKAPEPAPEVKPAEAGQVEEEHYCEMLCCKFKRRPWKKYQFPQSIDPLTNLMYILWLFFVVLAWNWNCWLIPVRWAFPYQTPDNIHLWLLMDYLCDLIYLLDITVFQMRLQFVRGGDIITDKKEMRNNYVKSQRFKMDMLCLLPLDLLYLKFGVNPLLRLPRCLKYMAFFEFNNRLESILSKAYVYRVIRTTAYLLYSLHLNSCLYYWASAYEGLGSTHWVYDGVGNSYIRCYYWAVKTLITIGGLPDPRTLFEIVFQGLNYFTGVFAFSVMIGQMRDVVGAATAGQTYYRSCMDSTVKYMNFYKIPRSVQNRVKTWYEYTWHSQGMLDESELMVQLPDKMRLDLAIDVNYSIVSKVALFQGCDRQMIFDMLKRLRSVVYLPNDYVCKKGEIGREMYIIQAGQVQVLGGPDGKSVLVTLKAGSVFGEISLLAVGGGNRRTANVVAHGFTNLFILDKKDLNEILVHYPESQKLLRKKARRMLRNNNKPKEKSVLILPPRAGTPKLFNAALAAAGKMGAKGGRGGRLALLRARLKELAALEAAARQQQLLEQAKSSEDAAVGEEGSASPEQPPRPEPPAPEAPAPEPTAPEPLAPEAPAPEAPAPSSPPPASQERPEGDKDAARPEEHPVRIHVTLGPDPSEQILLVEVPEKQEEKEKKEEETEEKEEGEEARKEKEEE
Sequence of UniProt P23975 (whole entry, looked up): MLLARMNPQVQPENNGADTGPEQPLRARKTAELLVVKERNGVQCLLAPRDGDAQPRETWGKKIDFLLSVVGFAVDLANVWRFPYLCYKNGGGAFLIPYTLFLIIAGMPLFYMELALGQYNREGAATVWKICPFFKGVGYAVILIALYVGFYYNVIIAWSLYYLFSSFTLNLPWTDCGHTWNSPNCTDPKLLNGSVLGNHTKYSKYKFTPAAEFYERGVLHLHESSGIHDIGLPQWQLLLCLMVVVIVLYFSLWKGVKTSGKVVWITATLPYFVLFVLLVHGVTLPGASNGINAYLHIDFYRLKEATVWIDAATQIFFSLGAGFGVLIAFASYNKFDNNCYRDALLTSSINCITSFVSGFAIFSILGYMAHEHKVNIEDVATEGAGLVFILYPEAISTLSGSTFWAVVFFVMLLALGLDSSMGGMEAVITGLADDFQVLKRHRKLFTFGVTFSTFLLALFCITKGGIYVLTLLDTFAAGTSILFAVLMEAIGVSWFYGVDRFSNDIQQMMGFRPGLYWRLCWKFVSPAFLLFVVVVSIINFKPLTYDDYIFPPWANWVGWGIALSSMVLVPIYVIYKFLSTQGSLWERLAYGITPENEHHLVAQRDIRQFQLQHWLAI
Sequence of UniProt O96013 (whole entry, looked up): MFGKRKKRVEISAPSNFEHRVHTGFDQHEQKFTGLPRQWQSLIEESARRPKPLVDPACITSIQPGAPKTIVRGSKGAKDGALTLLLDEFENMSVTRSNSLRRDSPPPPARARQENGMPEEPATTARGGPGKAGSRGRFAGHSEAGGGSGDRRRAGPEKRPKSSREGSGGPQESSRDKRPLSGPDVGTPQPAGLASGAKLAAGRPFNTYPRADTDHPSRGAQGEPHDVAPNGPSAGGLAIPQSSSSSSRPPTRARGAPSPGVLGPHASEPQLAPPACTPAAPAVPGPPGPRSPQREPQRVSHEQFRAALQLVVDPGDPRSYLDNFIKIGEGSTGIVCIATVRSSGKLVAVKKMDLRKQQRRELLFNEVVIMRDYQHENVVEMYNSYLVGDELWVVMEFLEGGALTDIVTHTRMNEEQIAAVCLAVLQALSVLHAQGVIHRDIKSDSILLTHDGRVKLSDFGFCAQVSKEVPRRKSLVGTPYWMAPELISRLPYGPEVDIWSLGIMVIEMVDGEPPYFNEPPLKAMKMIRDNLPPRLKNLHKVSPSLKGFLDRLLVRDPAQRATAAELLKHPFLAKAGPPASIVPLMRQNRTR
Sequence of UniProt P30550 (whole entry, looked up): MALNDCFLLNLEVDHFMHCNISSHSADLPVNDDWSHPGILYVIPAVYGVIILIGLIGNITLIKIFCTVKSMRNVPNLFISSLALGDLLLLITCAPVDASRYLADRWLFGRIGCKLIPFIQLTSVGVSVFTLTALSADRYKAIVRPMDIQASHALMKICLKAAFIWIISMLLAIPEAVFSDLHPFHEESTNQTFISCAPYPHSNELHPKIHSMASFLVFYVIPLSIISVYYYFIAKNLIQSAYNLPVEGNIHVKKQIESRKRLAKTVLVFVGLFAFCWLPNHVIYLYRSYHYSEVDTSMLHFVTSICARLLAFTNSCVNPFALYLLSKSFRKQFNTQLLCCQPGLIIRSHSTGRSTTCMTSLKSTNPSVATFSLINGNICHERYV
Sequence of UniProt P41240 (whole entry, looked up): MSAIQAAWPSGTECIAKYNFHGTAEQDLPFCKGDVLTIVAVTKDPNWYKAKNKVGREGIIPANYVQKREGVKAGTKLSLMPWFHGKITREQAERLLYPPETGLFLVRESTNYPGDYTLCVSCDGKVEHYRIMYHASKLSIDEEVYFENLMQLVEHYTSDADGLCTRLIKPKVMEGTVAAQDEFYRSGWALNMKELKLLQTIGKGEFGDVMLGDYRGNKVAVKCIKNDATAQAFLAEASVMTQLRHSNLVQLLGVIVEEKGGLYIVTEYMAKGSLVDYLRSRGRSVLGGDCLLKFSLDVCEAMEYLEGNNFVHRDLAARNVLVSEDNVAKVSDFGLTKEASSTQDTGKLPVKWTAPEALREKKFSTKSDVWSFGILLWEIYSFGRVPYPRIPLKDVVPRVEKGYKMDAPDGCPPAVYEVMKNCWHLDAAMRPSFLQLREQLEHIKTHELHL
Sequence of UniProt Q96DB2 (whole entry, looked up): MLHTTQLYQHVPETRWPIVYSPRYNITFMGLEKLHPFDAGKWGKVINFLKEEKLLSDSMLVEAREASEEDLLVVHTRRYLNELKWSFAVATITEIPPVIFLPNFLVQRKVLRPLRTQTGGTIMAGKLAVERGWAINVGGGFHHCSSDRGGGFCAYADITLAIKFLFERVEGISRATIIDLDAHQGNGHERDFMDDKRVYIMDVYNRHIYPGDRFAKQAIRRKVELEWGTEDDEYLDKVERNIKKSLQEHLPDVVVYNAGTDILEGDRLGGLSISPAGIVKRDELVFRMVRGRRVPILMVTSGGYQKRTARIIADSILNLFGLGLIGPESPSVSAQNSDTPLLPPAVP

With `O=C(O)C(CO)NCc1cc(Cl)c(OCc2cccc(-c3ccccc3)c2Br)cc1OCc1cccnc1` (centres unmarked) the IC50 was over 10000 nM (Cd274 (Mus musculus, UniProt Q9EP73); protein-protein interaction, inhibitor, ELISA).
`CCCC[C@H](NC(=O)[C@H](Cc1ccccc1)NC(=O)[C@H](Cc1c[nH]cn1)NC(=O)CCNC(=O)[C@@H](NC(=O)[C@H](C)NC(=O)[C@H](Cc1c[nH]c2ccccc12)NC(=O)[C@H](CCC(N)=O)NC(=O)[C@H](N)Cc1ccccc1)C(C)C)C(N)=O` gave an IC50 of 0.048 nM (GRPR (Homo sapiens, UniProt P30550); ligand displacement in cells, radioligand).
The IC50 of `O=c1[nH]sc2ccccc12` is reported as over 10000 nM (HDAC11 (Homo sapiens, UniProt Q96DB2); enzyme activity, inhibitor).
The IC50 of `Cc1cccc(C)c1NC(=O)CC(C)NCc1cccc2ccccc12` (centres unmarked) is reported as 44000 ± 4000 nM (SCN4A (Homo sapiens, UniProt P35499, F1586C); tonic block of sodium current, whole-cell patch clamp; HEK293; 0.1 Hz stimulation).
For `N=C(N)NCCCC(N)C(=O)NCC(=O)NC(CCCNC(=N)NCCSCC1OC(n2cnc3c(N)ncnc32)C(O)C1O)C(N)=O` (centres unmarked), the IC50 was over 100000 nM (SETD7 (Homo sapiens, UniProt Q8WTS6); enzyme activity, inhibitor, fluorescence).
The IC50 of `CC1=C(/C=C/C(C)=C/C=C/C(C)=C/C=O)C(C)(C)CCC1` is reported as 185 nM (CNGA1/CNGB1 (Bos taurus, UniProt Q00194+Q28181); cGMP-activated current, inhibitor, inside-out patch clamp; Xenopus oocytes; +100 mV, with: saturating cGMP 2 mM).
`CNC(=O)c1cc(C)ccc1NC(=O)c1ccc(-c2cc(O)ccc2C)c(C)c1` has an IC50 of 335 nM (EPHA5 (Homo sapiens, UniProt P54756); target engagement in cells, BRET).
The IC50 of `Cc1nc(Nc2ncc(C(=O)Nc3c(C)cccc3Cl)s2)cc(N2CCN(CCOC(=O)[C@@H](N)CCCNC(=N)N)CC2)n1` is reported as 4.4 nM (CSK (Homo sapiens, UniProt P41240); enzyme activity, inhibitor).
`CC(C)C[C@@H](N)C(=O)N[C@H](CC(=O)O)C(=O)N[C@@H](C(=O)N[C@H](Cc1ccccc1)C(=O)N[C@H](CC(C)C)C(=O)N[C@H](Cc1ccc(O)cc1)C(=O)N[C@H](CO)C(=O)N[C@H](CCC(=O)O)C(=O)O)C(C)C` has an IC50 of 55640 ± 140 nM (Programmed cell death 1 ligand 1, with PD-1 (Cd274, Mus musculus, UniProt Q9EP73); PD-1/PD-L1 binding, inhibitor, flow cytometry; CHO-K1 expressing mouse PD-1; with: mouse PD-L1-Fc).
For `O=c1c(-c2ccccc2)coc2cc(O)c(O)cc12`, the IC50 was 349600 ± 1200 nM (PCO4 (Arabidopsis thaliana, UniProt Q9SJI9); enzyme activity, inhibitor, RapidFire Q-TOF MS; with: RAP2 peptide substrate).
For `O=C(NCc1nc(-c2ccc(Br)cc2)c[nH]1)Nc1ncc(Sc2ccccn2)s1`, the IC50 was 67 nM (Enoyl-(Acyl-carrier-protein) reductase (Streptococcus pneumoniae, UniProt Q9FBC5); enzyme activity, inhibitor).
`C[C@H]1CN(C(=O)c2cn(-c3ccnc(N)n3)c3cc(C#CC4(O)CCCCC4)ccc23)CCN1` gave an IC50 of 18.3 nM (PAK4 (Homo sapiens, UniProt O96013); enzyme activity, inhibitor, TR-FRET).
The IC50 of `Cc1cc(C)nc(SCC(=O)Nc2ncc(Cc3cccc(OCc4cn(Cc5ccc(C#N)cc5)nn4)c3)s2)n1` is reported as over 100000 nM (SIRT3 (Homo sapiens, UniProt Q9NTG7); enzyme activity, inhibitor, fluorescence).
With `COc1ccc2cc(C(=O)NCCN3CCC(Cc4ccccc4)CC3)ccc2c1` the IC50 was 200 to 470 nM (SLC6A2 (Homo sapiens, UniProt P23975); transporter uptake, inhibitor, radiometric).

Excerpt of the above:
The IC50 of `CC1=C(/C=C/C(C)=C/C=C/C(C)=C/C=O)C(C)(C)CCC1` is reported as 185 nM (CNGA1/CNGB1 (Bos taurus, UniProt Q00194+Q28181); cGMP-activated current, inhibitor, inside-out patch clamp; Xenopus oocytes; +100 mV, with: saturating cGMP 2 mM).
`CC(C)C[C@@H](N)C(=O)N[C@H](CC(=O)O)C(=O)N[C@@H](C(=O)N[C@H](Cc1ccccc1)C(=O)N[C@H](CC(C)C)C(=O)N[C@H](Cc1ccc(O)cc1)C(=O)N[C@H](CO)C(=O)N[C@H](CCC(=O)O)C(=O)O)C(C)C` has an IC50 of 55640 ± 140 nM (Programmed cell death 1 ligand 1, with PD-1 (Cd274, Mus musculus, UniProt Q9EP73); PD-1/PD-L1 binding, inhibitor, flow cytometry; CHO-K1 expressing mouse PD-1; with: mouse PD-L1-Fc).
